Results of several laboratories.
Each numbered part is a random draw from the data of one study; scales do not carry over between parts.

Sample 1
Target: Prothrombin, mature alpha-thrombin (F2, Homo sapiens, UniProt P00734)
Technique: aptamer microarray, sandwich
Molecule type: DNA with 2'F-ANA
Medium: in vitro
Concentration: 200 nM
Setting: whole 15-mer aptamer, many near background
Together with: Cy3 exosite-II aptamer, 400 nM
Direction: higher = stronger binding
Strand: GGTTGGTGTGGTTGG
`2'F-ANA at 2 10`: “mean fluorescence intensity” 142 a.u.
For `2'F-ANA at 2 3 6 8 10 11 13 14 15`, “mean fluorescence intensity” read 202 a.u.
`2'F-ANA at 1 3 4 5 6 9 11 12 13`: “mean fluorescence intensity” 104 a.u.
For `2'F-ANA at 1 3 5 6 8 9 10 11 12`, “mean fluorescence intensity” read 53 a.u.
For `2'F-ANA at 4 8 11 12 14 15`, “mean fluorescence intensity” read 121 a.u.
For `2'F-ANA at 6 9 10 11 12 15`, “mean fluorescence intensity” read 208 a.u.
For `2'F-ANA at 2 3 6 11 14`, “mean fluorescence intensity” read 374 a.u.

Sample 2
Target: RNA binding protein fox-1 homolog 2, RRM domain, GST-SBP tag (RBFOX2, Homo sapiens, UniProt O43251-10, residues 100-194)
Technique: RNA Bind-n-Seq
Molecule type: RNA
Medium: in vitro
Concentration: 365 nM
Setting: natural RNA segment, single round, ends assumed
Relative to: no-protein control
Direction: higher = stronger binding
Constant ends, left off below: GGGAGUUCUACAGUCCGACGAUC … UGGAAUUCUCGGGUGCCAA
Target sequence (chain): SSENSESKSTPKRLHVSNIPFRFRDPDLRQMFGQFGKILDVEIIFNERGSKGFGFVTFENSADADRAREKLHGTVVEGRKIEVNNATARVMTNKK
For `CAUCUAGUAAAAUGGCUGAAGGGGAAGAGAAGGAGGACCAAUCUGAAGACAAGAGCUCACCCACUGUGCCUCCCAGCCCAUUCCCUGCCCCCUCAAAGCCUUCAGCCACC`, “RBNS enrichment (R)” read 0.376.
`GCAAGUAGUUUCAACAUACUCCAGGAACUGAGAAACAAAACAAAGCAAUUGUGGGUUUUGAGCUCCAUAUACUCUUAGCAAGUAAGGGGGCGUCUUGCCCCUAUAUAUCA` — result for “RBNS enrichment (R)”: 0.574.
`GGGGCGGGGCACCUGCAGACCAGCCCCCUCAGCUGCGGGAGCGGAGCAAGUUGUGCCCUGCCCUUCCCUCCCUGACCUGAGGCAGAACCCAGAUUAAGCAGGUCUCCACC`: “RBNS enrichment (R)” 0.263.
`GCCAUGCCCUAAAACACUCACACCUGUAAACCCAGUCCUUAGGAGACUGAGGCAGGAGGAUCCCUGUGAGUUCCAGGCCAGUCUAAGCUGCAGAGGGAAAGCGUCUCAAA`: “RBNS enrichment (R)” 0.385.
Under “RBNS enrichment (R)”, `UGGACUGGCCCCUUAAUUCCCACAGGCCCCCCCAGCAAGGCCAAAGGGAGGCCCCUGGGUAUUGUCCUCCUACAAGGAAGAUCCUCUUUGUUUGUUCAAAGGACCAGUUU` is recorded as 0.286.
`AAGAUCCUUCUCGUAUUUCAUUUGGAAAGAUGAGCAAGAGGUCUGCUUCCUUCAUUUUACUUCCCCUUCUGUUUUUGAAAGGCAGUUUCGCCAAGCUUAAUGCAAGAAUA`: “RBNS enrichment (R)” 0.305.
`GAUGAUGAAAACUAAGGAUUUUUCAAGAGAUCUUUCUUUCCAAAACAUUUCUGGACAGUACCUGAUUGUAUUUUUUUUUUAAAUAAAAGCACAAGUACUUUUGAGUUUGU` — result for “RBNS enrichment (R)”: 0.478.

Further values, each from its own experiment
For `BRIX1 (Homo sapiens, UniProt Q8TDN6)`, interaction screen read “cross-linked” (EBNA1BP2 (Homo sapiens, UniProt Q99848); cross-linking MS; hits only).
The fold induction of `PhoQ, residues 284 288 289 292 302 303 AGGLSV` is reported as 0.343 (PhoP, residues 12 14 15 18 19 HEGLL (Escherichia coli, UniProt P23836); Sort-seq, measured: YFP reporter; E. coli; PhoQ-PhoP variant library, together with: 10 µM Mg2+; relative to: high Mg2+ state, higher = stronger signaling).

For quick reference, copied from above (sample 1):
For `2'F-ANA at 4 8 11 12 14 15`, “mean fluorescence intensity” read 121 a.u.
For `2'F-ANA at 2 3 6 8 10 11 13 14 15`, “mean fluorescence intensity” read 202 a.u.
